Experimental data from different studies.
Every numbered part comes from another study and shows a few of its results, in no order. “And” joins repeats or separate records; there may be more than shown.
Chain of UniProt P21918 (whole entry, looked up): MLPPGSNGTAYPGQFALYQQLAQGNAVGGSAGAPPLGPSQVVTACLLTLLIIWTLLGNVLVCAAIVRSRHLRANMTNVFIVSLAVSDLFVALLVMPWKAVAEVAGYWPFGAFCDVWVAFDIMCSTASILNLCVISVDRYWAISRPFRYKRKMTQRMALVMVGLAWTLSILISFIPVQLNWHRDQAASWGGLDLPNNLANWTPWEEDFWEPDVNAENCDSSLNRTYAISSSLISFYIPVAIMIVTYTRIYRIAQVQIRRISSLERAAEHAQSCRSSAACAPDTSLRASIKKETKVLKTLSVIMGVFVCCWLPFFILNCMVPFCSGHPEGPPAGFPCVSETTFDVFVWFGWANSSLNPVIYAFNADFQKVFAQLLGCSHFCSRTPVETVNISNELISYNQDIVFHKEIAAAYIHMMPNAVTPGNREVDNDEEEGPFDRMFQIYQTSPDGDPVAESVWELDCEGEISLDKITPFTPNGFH
Chain of UniProt Q13976 (whole entry, looked up): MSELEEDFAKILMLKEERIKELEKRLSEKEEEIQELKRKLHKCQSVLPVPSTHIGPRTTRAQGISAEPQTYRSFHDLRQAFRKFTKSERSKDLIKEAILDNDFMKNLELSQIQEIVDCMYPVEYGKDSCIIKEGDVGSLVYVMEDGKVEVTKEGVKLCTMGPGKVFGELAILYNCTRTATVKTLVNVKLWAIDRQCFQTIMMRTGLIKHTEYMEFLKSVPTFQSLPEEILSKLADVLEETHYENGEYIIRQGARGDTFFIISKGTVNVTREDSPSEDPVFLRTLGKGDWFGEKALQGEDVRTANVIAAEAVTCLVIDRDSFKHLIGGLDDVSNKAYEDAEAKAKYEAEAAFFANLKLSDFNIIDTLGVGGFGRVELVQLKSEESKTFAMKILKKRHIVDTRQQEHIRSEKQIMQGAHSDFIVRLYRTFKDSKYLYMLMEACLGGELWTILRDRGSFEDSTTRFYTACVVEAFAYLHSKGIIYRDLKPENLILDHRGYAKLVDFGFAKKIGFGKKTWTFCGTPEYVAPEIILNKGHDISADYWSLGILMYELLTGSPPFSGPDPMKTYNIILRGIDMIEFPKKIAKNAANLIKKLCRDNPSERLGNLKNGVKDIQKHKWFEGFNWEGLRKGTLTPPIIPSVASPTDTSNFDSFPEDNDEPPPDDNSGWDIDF
Chain of UniProt P62344 (whole entry, looked up): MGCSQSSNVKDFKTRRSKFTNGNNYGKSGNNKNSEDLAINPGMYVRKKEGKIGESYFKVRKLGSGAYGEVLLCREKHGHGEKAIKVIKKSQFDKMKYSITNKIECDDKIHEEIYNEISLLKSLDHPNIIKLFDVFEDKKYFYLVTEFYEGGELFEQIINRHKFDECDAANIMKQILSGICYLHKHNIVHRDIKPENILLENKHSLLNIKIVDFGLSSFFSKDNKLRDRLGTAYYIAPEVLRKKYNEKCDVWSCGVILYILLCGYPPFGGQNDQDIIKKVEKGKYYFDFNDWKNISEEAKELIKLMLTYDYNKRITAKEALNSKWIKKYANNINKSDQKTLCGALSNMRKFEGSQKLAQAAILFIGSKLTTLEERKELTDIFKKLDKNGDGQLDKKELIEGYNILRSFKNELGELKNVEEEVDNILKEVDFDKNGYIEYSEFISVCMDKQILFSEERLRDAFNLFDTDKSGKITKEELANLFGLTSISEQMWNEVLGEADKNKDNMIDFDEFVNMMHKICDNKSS
Chain of UniProt P07948 (whole entry, looked up): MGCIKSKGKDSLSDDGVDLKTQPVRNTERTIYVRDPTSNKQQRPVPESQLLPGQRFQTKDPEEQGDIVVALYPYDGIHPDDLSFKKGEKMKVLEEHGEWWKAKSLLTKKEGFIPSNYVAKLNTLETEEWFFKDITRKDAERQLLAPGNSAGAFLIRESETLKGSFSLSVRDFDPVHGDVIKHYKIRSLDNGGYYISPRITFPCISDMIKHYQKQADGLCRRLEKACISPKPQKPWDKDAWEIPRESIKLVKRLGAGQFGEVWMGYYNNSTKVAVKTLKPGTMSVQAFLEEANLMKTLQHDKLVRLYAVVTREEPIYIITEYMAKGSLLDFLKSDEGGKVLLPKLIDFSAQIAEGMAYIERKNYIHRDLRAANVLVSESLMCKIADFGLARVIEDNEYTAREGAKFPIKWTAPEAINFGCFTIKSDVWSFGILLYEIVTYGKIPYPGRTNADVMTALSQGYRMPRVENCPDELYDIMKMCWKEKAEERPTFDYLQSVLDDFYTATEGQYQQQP
Chain of UniProt P05771 (whole entry, looked up): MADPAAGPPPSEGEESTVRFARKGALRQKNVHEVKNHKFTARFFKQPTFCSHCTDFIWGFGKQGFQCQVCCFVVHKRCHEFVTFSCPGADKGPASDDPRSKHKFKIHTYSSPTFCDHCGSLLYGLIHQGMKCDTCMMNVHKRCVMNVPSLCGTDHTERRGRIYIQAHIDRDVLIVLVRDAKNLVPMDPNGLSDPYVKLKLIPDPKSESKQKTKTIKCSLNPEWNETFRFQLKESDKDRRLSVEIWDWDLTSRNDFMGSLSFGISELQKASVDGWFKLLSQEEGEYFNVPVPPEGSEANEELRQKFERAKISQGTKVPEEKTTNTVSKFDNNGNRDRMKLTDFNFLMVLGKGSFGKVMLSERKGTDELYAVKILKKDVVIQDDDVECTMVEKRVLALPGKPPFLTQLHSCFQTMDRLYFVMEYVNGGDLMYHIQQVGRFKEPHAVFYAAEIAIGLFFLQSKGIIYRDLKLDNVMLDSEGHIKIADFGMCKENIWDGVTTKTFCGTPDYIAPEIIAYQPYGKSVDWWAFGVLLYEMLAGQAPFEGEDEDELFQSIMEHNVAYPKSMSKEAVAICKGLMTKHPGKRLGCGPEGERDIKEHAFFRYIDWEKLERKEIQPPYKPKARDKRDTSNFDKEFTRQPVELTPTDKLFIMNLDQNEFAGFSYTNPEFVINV

Study 1
Compound: O=c1[nH]c2ccccc2n1C1CCN(Cc2ccc(-c3[nH]c4cc5ncnc5cc4nc3-c3ccccc3)cc2)CC1
Read-out: enzyme activity
Mode: inhibitor
Tested at: 0.5 µM
Reference: control
Measurement: remaining activity
Tyrosine-protein kinase Lyn, isoform B (LYN, Homo sapiens, UniProt P07948): 116%
cGMP-dependent protein kinase 1, isoform beta (PRKG1, Homo sapiens, UniProt Q13976): 101%
Protein kinase C beta type, isoform beta-I (PRKCB, Homo sapiens, UniProt P05771): 108%

Study 2
SMILES: CCOc1ccc(Nc2c3c(nc4ccccc24)CCC3)cc1
Organism: Leishmania donovani
Measurement: inhibition
parasite growth; DD8 amphotericin B-resistant, promastigotes; 0.0033 µM: 2% and 1%
THP-1 intracellular amastigotes, DD8 resistant line; 2 µM, resistance confirmation: 20%
parasite growth; DD8 amphotericin B-resistant, promastigotes; 0.16 µM: 2% and 8% and 5% and 4%
parasite killing; DD8, intracellular amastigotes; 8 µM, 24 h: 60% and 34% and 36%
parasite growth; DD8 amphotericin B-resistant, intracellular amastigotes; 2 µM: 78% and 82% and 83% and 74% and 88%
parasite growth; DD8 amphotericin B-resistant, intracellular amastigotes; 8 µM: 100%
parasite growth; DD8 amphotericin B-resistant, intracellular amastigotes; 0.02 µM: 1% and 5%

Study 3
Compound: CNC(=O)c1ccc(-c2cnn3ccc(C(=O)N(C)c4ccc(Cl)c(C(=O)OC)c4)cc23)cc1
Organism: Cryptosporidium parvum
Method: time-kill
Cell line: HCT-8
Strain: nanoluciferase-expressing
Direction: higher = more parasites
Measurement: parasite luminescence
0.02743 µM, 4 h: 79300 RLU and 99100 RLU
20 µM, 8 h: 92700 RLU and 89400 RLU
0.00305 µM, 8 h: 80200 RLU and 84100 RLU
0.00305 µM, 24 h: 204000 RLU and 260000 RLU
6.667 µM, 48 h: 28100 RLU and 32400 RLU
6.667 µM, 24 h: 108000 RLU and 103000 RLU
2.222 µM, 4 h: 81700 RLU and 105000 RLU
0.2469 µM, 4 h: 78900 RLU and 75800 RLU
2.222 µM, 24 h: 94400 RLU and 95800 RLU
20 µM, 4 h: 87800 RLU and 71000 RLU
0.2469 µM, 24 h: 96900 RLU and 68500 RLU

Single results of other studies
CRK2: Cyclin-dependent kinase 2 homolog (CRK2, Plasmodium falciparum, UniProt P61075)
Chain of UniProt P61075 (whole entry, looked up): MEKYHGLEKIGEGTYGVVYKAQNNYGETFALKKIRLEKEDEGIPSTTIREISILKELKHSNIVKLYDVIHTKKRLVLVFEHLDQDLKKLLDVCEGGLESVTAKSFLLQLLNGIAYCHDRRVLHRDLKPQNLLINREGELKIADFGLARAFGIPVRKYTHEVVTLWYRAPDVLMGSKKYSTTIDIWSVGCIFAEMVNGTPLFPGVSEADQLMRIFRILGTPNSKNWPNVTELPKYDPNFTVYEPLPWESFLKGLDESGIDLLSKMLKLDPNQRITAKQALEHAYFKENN
COc1cc(-c2cn(C3CCc4ccccc4N(CC(F)(F)F)C3=O)nn2)ccc1-n1ccc(C)n1 (stereo not shown)
remaining binding (CRK2; cell-free assay, competition with immobilised ligand; 1 µM): 100%

C[C@@]1(Cc2ccc(C#N)cc2)C(=O)N(c2cc(Cl)cc(Cl)c2)c2ncc(C(=O)NC3(c4nc(C5CCC5)no4)CC3)n21
remaining binding (CRK2; cell-free assay, competition with immobilised ligand; 1 µM): 100%

Cc1c(NC(=O)c2cc(C(N)=O)nc3cc(F)ccc23)c(C(F)(F)F)nn1Cc1ccc(C(C)(C)C)cc1
remaining binding (CDPK1 (Plasmodium falciparum, UniProt P62344); cell-free assay, competition with immobilised ligand; 1 µM): 100%

CC1=C(C#N)[C@@H](c2ccc3[nH]nc(C)c3c2)C(C#N)=C(c2ccc(Cl)cc2)N1
Ki (DRD5 (Homo sapiens, UniProt P21918); binding, radioligand binding): > 10 µM

A few entries again (study 1):
cGMP-dependent protein kinase 1, isoform beta (PRKG1, Homo sapiens, UniProt Q13976): 101%
Protein kinase C beta type, isoform beta-I (PRKCB, Homo sapiens, UniProt P05771): 108%
Tyrosine-protein kinase Lyn, isoform B (LYN, Homo sapiens, UniProt P07948): 116%
